Assay results of several laboratories.
Numbered parts are unrelated; each lists some results of a single study.

Sample 1 — technique: aptamer microarray, sandwich; form: DNA with 2'F-ANA; sample: in vitro; concentration: 200 nM; with: Cy3 exosite-II aptamer, 400 nM; reading: higher = stronger binding; sequence: GGTTGGTGTGGTTGG
Target: Prothrombin, mature alpha-thrombin (F2, Homo sapiens, UniProt P00734)
Notes: whole 15-mer aptamer, many near background
| Modification | mean fluorescence intensity [a.u.] |
| --- | --- |
| 2'F-ANA at 4 7 8 9 11 13 14 15 | 102 |
| 2'F-ANA at 1 2 5 7 13 | 64.5 |
| 2'F-ANA at 3 4 5 7 8 12 13 15 | 134 |
| 2'F-ANA at 1 4 5 7 9 10 15 | 44.5 |
| 2'F-ANA at 1 2 3 6 7 13 | 149 |
| 2'F-ANA at 3 5 6 8 9 11 12 13 14 15 | 59.6 |
| 2'F-ANA at 1 3 5 7 9 11 12 14 | 49 |
| 2'F-ANA at 2 4 5 8 9 11 12 15 | 271 |
| 2'F-ANA at 2 3 8 9 10 11 12 13 | 378 |
| 2'F-ANA at 2 4 5 6 8 9 13 15 | 52.7 |
| 2'F-ANA at 1 4 5 7 8 9 10 11 13 14 15 | 47.2 |
| 2'F-ANA at 1 3 4 5 6 7 8 11 12 14 15 | 50.6 |
| 2'F-ANA at 1 3 5 6 7 8 10 11 14 15 | 51.9 |
| 2'F-ANA at 6 7 8 10 13 14 15 | 119 |
| 2'F-ANA at 2 5 8 9 12 14 | 84.7 |
| 2'F-ANA at 1 2 3 4 7 8 10 11 15 | 62.4 |
| 2'F-ANA at 1 3 4 5 7 | 61.6 |
| 2'F-ANA at 2 3 5 7 8 9 13 14 15 | 64.9 |
| 2'F-ANA at 1 2 3 4 11 | 177 |
| 2'F-ANA at 1 2 6 9 10 12 | 72.8 |

Sample 2 — technique: protein-binding microarray; form: double-stranded DNA, one strand shown; sample: in vitro; concentration: 250 nM; notes: 60-bp whole probe; with: salmon DNA 0.4 mg/ml; reference: random background probes; reading: higher = stronger binding; shared flanks, not repeated: GCCTAGCAC … GTCTTGATTCGCTTGACGCTGCTG
Target: Interferon regulatory factor 5, full length, phosphomimetic (IRF5, Homo sapiens, UniProt Q13568-2, residues 1-514, K96S/S451D/S453D/S456D/S462D)
| Sequence | log fluorescence [z-score] |
| --- | --- |
| TCAATTACCTCATCTTTCACTGTGCTA | 1.72 |
| CTTTTTTTCAAGAAACAGTTCGTGCTA | 0.98 |
| GACGGTCTCGGTCTCGAGACGTGCTAG | 0.202 |
| TTAGGTATTGGTATCGGTTAGTGCTAG | 7.45 |
| CTCTATTGCTTTCTCTTTCAGTGCTAG | 4.82 |
| CCGCATATCGGGGTGCGCCCGGTGCTA | -0.139 |
| ATAACACTCTTCTTTTGCTAAGTGCTA | 1.2 |
| TGTTTTTTGGTTTCTGGTTTGTGCTAG | 4.02 |
| GCCGGACTGGGGACTGGGGACGTGCTA | -0.652 |
| TTAGGTTTCGGGTTTCCGTTAGTGCTA | 8.53 |
| TCACTTTTGCTTGTTCTTACTGTGCTA | 2.52 |
| TTAGGTTTCGACTATCGGTCAGTGCTA | 9.24 |
| TTGTTTTTCATCATTGCCTAGTGCTAG | 2.01 |
| GACGAACTGAGTATCGAGACGTGCTAG | 1.97 |
| TAATGGATATATATCATTTAGTGCTAG | 0.798 |
| TCAACTTCTCTTTTTGCACTGTGCTAG | 1.01 |
| TTAGGTTCCGGTTTCGGCTAGTGCTAG | 6.79 |
| CGCAGGGCAGGCTTCGGCCGGTGCTAG | -1.08 |
| GACGCTTTCAGTCTCGAGACGTGCTAG | 3.93 |

Sample 3 — technique: RNA Bind-n-Seq; form: RNA; sample: in vitro; concentration: 100 nM; reference: input RNA pool; reading: higher = stronger binding
Target: RING finger protein unkempt homolog, zinc fingers 1-6, SBP tag (UNK, Homo sapiens, UniProt Q9C0B0, residues 30-357)
UniProt Q9C0B0, sequence (30-357, looked up): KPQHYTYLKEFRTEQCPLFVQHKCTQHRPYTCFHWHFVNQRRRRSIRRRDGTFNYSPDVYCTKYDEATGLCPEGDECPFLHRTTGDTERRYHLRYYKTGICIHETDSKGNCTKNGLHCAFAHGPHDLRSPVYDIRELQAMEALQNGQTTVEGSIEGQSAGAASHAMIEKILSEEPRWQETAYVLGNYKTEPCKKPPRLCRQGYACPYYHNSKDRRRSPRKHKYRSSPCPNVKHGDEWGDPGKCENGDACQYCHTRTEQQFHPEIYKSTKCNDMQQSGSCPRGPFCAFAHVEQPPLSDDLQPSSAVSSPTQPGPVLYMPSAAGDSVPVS
Notes: RNA with constant flanks, vertebrate orthologous sites, ends assumed
Shared flanks, not repeated: GGGAGUUCUACAGUCCGACGAUC … CAACAGAGGAUUGAGCAUCA
| Sequence | bound/input enrichment [ratio] |
| --- | --- |
| CAUGACCUUGUUACUGUGAUAUUUAAAGUAUCUACAGUACUCACUUUCUCCAAAUGAUUCUAGUAAUUUGCCUAGAGAUAACUUUCUCUGACCUGUUAUUUAUCAAUUUUUCCCAGUAUU | 0.623 |
| UUUUUUCUUUUUUUUUUUAAUUUAAUUUUUCCUUUUGGGGGUAAAGUUUGCUCUACCAAAUAGUGAUUGUAACAAAUUGAUCUGUUUUGGAUGUUGCUAUAGUGACAUGCAGUUAUAUAU | 1.6 |
| GUUAGGCCAUGACCCUUAUAGGCUAGGUCAUGAUGCCUACAGGUUAGGGCAAGACCCCUAUAGAUUAGGGCAUGACCCCUACAGACUAACUCCUGAUCCCUAUAGGAUGUCACCUAGACC | 0.357 |
| AUUUAAAAUGUAGUUAGUUAUAUUUAAUGACCUCAUUCCUAAGUUCCUUUUUCAUUCAUGUAGCUUUCAUUUGUUAUUGCUGUUUGAAUAAUAUGAUUAAAUAGAAGGUUUGUGCCAGUA | 0.492 |
| UUGGUUGAAGGUAGAGGGGAGGGAUGGGCAGGACAGUGUGGAAUCUCUAAGAUGUUAUGGGUAGGUAGGGACACAGUUUUAAGUGAGCCUUUAUGUUAAAAACUUCUGGAGAGGUCUUCU | 0.752 |
| UUGUAGGUUUCCAGAGUAGAUUUAGUCAUCUUCAUGGAAUGCCAGCAAACCAGAAUGCAUUGGUAGGUGCUUUUAUUACUGUUGGCUAAUGUGUAGAGGUGUUCGGGUUUGCUUUUUGUU | 0.738 |
| UGCCCCCACCCACUGUGAGAGGGAAUGGGGGAAGCCUGAUGACCCUCAGCUGUUCCAAUCUAGUAUUUUUUUUCUUUUUUAAAAUUACUGUAUUUAUUAUGACGACGGUGACUCCCCAGU | 1.69 |
| UCUAGGUGGGGGUAACCAUUAACAUAUUUAAAUAAAGAAAAGAAGUGCUGAAAAUCAUGUUAGUCCUAAGUUUAGUUAGAGAAUUUACAUAAGCCUCUUUUAGGUAAUUCUAAAAUUGAA | 1.72 |
| UAUCCGUGUCAUACCAGCCUAUUAACCUCUUGUCUGUGCACAGCUUCAAAUGUUACCGUCUAGUUAGAUUUUUAUUUAAAAUAUGAAAAAACUGCUUUUCCCAAGAUGUUUUUUAAAAAC | 2.18 |
| GUGCUCUUGUACAGCCAUUAGGUUCCUCCUCUACUUCUCCCCAGAAGGAACAAAUCUAAAAUAGAUUCCUACACAUCUGACUCUGCUGUUCUGGUUUUGUUUUCUAUCAUUAUUACAUAU | 1.44 |
| GCAGCUGCUUUUUCAUAUGGCCUCAGUGAGGUAACAUCUCCCUGGGCAUUCAGUCGGUACCAGAGCCCUUCUUUCCUAAGAAGACCGUUCACAUUUCACAUCCUUCCUUUUACACGCCAU | 0.371 |

Sample 4 — technique: RNA Bind-n-Seq; form: RNA; sample: in vitro; concentration: 365 nM; reference: no-protein control; reading: higher = stronger binding
Target: RNA binding protein fox-1 homolog 2, RRM domain, GST-SBP tag (RBFOX2, Homo sapiens, UniProt O43251-10, residues 100-194)
Notes: natural RNA segment, single round, ends assumed
Shared flanks, not repeated: GGGAGUUCUACAGUCCGACGAUC … UGGAAUUCUCGGGUGCCAA
Residues (chain): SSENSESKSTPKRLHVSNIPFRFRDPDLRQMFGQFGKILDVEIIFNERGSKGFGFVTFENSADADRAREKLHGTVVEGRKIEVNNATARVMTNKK
| Sequence | RBNS enrichment (R) |
| --- | --- |
| UUAAACAGCAUUUUAAAGCACAGUCACUAGUAUUCCAGUUGUGUUUGUAGAAAAAAAAAAUCACAUCAUGGUGCUCCUGCGAUCAGCUUCUGAAGUGCUGGGAGCAUAGG | 0.699 |
| CUCUAUUUUGUGAUGACUCUGCUGUGACAUUAGGUUUGAAGCAUUUUUUUUUUCAAGCAGCAGUCCUAGGUAUUAACUGGAGCAUGUGUCAGAGUGUUGUUCCGUUAAUU | 3.07 |
| UAUACCUAAUGCUAGAUGACGAGUUAGUGGGUGCAGCGCACCAGCAUGGCACAUGUAUACCUAUGUAACUAACCUGCACAAUGUGCACAUGUACCCUAAAACUUAAAGUA | 1.15 |
| GGCUGAGAUCAAUAAAUUUAACACUAGACGAAGUAGACUUCCUGUCUUUUUGAGAAGAGAUGAGGUAUAUGUUACAAUAAAUCUCAGAACUUCAAGUAGCAGUUCAAAAG | 0.401 |
| GUCCCUUUCUGCAGAGGAAGGGAUGCUCGCAGGGUGGCAGUGGCCCAGCCCCAGCCUCAGGGACGGGGAGGGAGAGCCCCCUCUGGGCCCAGCAGGCAGGUGUUCUGAGG | 0.135 |
| GUUUUUGAGGAUCCCUGGGUCUUCUGAGACUGGCCAGGAGAGGGAUGGUGGGGCCAGUGGUUGUGUGAAAGCAGGAGGGGCAGCCCUCCUGGACAAGUGUGAUCCCCCUA | 0.318 |
| UUGUUAUAGUAACAUAAAUAAUACACAGAAUUUUGUUACACUAUCAGUUUGGGGGGUGAGCUUUGAUUAAUUCCCCAGGCUCUUGGAUUUCAAGAGUAGCUGCCUUAAAA | 0.373 |
| ACUUGUAUUCUUAAAAUUGGAGGCUAGUUAUUUUGUCAAAUGCAUGUAAUGAACAGACCCGAAGGAAUCCUCCACACACAAGCCAGGGAACACCAACUGGAAAGGUACCC | 3.73 |
| AGGAAAAAAAGUUCUAAGCUUCUUAUGUGGUCCACAAGGAAUCCAUAUUUGAGAAACAUGAUUAGGUGAAUAAAGUAUUCUAGCAAAAGCUCUAAUCUGUAGAUCAAAAU | 0.538 |
| UACUUGCUUCUGUCUGACACCUUCUCCCUGUUGGCCUGAAGGGAGCUUAGAAUGCAGCCCUACCUGGAGAUAGUGCGGGCACCUGUGGCCAAGUGGAGCAGAGGUGGACA | 3.06 |
| UUAUUUAAUUCAUUAAUGAAAGAGAGUGCUCUCUUUAAUGCAGCUUUGGGUAGACAGUCUAAUUCAGUCCAAUUUUAAUCUGCAUUAAAAUAUGCAAUGCUAGACAAAGA | 0.316 |
| UUUUGUUUUUUUAAAGAAAAAGAAAAAUGAGAAGAAAAAAAUAAAAGCUCCAGCGUCUUUCUUAUAAAUAGCCCUUUAUUGCGAUAUUUUCCUCCUUCUGGACAACCGCG | 0.581 |

Excerpt of the above (sample 2):
| Sequence | log fluorescence [z-score] |
| --- | --- |
| GCCGGACTGGGGACTGGGGACGTGCTA | -0.652 |
| TTGTTTTTCATCATTGCCTAGTGCTAG | 2.01 |
| TCAACTTCTCTTTTTGCACTGTGCTAG | 1.01 |
| GACGCTTTCAGTCTCGAGACGTGCTAG | 3.93 |
| CGCAGGGCAGGCTTCGGCCGGTGCTAG | -1.08 |
| TTAGGTTCCGGTTTCGGCTAGTGCTAG | 6.79 |
| TCACTTTTGCTTGTTCTTACTGTGCTA | 2.52 |
| CTTTTTTTCAAGAAACAGTTCGTGCTA | 0.98 |
